Experimental data of several laboratories.
Protocols differ between the studies behind these lines. Several values in a cell are separate wells, animals, samples, runs or records. Numbers after ± are the reported error.

Under “collision cross section”, CC[C@H](C)[C@H](NC(=O)[C@@H]1CCCN1C(=O)CNC(=O)[C@H](Cc1ccccc1)NC(=O)[C@H](CC(N)=O)NC(=O)[C@H](CC(N)=O)NC(=O)[C@H](CO)NC(=O)[C@H](CO)NC(=O)[C@H](Cc1c[nH]cn1)NC(=O)[C@@H](NC(=O)[C@H](CC(C)C)NC(=O)[C@H](Cc1ccccc1)NC(=O)[C@H](CC(N)=O)NC(=O)[C@H](C)NC(=O)[C@H](CC(C)C)NC(=O)[C@H](CCCNC(=N)N)NC(=O)[C@H](CCC(N)=O)NC(=O)[C@@H](NC(=O)[C@H](C)NC(=O)[C@@H]1CSSC[C@H](NC(=O)[C@@H](N)CCCCN)C(=O)N[C@@H](CC(N)=O)C(=O)N[C@@H]([C@@H](C)O)C(=O)N[C@@H](C)C(=O)N[C@@H]([C@@H](C)O)C(=O)N1)[C@@H](C)O)C(C)C)C(=O)N[C@@H](CC(C)C)C(=O)N[C@@H](CO)C(=O)N[C@@H](CO)C(=O)N[C@H](C(=O)N[C@@H](CC(N)=O)C(=O)N[C@H](C(=O)NCC(=O)N[C@@H](CO)C(=O)N[C@@H](CC(N)=O)C(=O)N[C@H](C(=O)N[C@@H](Cc1ccc(O)cc1)C(N)=O)[C@@H](C)O)C(C)C)[C@@H](C)O is recorded as 545.2 ± 4.4 Å² (ion mobility mass spectrometry; ammonium acetate; pH 7.5, monomer ion charge +2).
CC1=CC(C)(C)N=C2C=CC(=O)C=C12 gave a tissue residue of 25.6 ± 9.4 ng/g (LC-MS/MS; piglets, subcutaneous fat; oral in feed, 50 mg/kg feed ethoxyquin, 42 days).
With COc1cc(NC(C)=O)c2c(c1O)-c1c(OC)c(OC)cc3c1C(C2)N(C)CC3 (centres unmarked) the remaining compound was 95.3 ± 2.3% (rat brain homogenate; 100 µg/mL, 24 h, room temperature, post-preparative storage).
Cc1cc2c(cc1C1(c3ncc(C(=O)O)cn3)CC1)C(C)(C)CCC2(C)C gave a blood triglycerides of 118 ± 8.9 mg/dL (Sprague-Dawley rat, male; oral, 100 mg/kg, 3 h, sesame oil vehicle).
CCCC[C@H](NC(=O)CNC(=O)CNC(=O)CN1CCN(CC(=O)O)CCN(CC(=O)O)CC1)C(=O)N[C@H]1CC(=O)NCCCC[C@@H](C(N)=O)NC(=O)[C@H](Cc2c[nH]c3ccccc23)NC(=O)[C@H](CCCNC(=N)N)NC(=O)[C@@H](Cc2ccccc2)NC(=O)[C@H](Cc2c[nH]cn2)NC1=O [copper-64 labelled] gave a urinary excretion of 97.05 ± 0.55% (C57 mouse female B16/F1 melanoma, urine; intravenous, 0.037 MBq, 24 h).
CCCC[C@H](NC(C)=O)C(=O)N[C@H]1CC(=O)NCCCC[C@@H](C(=O)N[C@@H](C(=O)N2CCC[C@@H]2C(N)=O)C(C)C)NC(=O)[C@H](Cc2c[nH]c3ccccc23)NC(=O)[C@H](CCCN=C(N)N)NC(=O)[C@@H](Cc2ccc3ccccc3c2)NC(=O)[C@@H]2CCCN2C1=O has a half-life of 156 ± 12 min (Beagle dog, both sexes, plasma; subcutaneous, once daily, 2.25 mg/kg, day 1).
With Oc1ccc2ccccc2c1/N=N/c1ccccc1 the measured concentration was 0.521 µg/L (extracted rat blood QC samples; 0.5 µg/L, 12 h, room temperature, short-term stability).
Cc1ccc(OCC(=O)O)cc1 has a Cmax of 1740 ± 163 ng/mL (Sprague-Dawley rat, female, plasma; oral, 10 mg/kg/day of parent drug, day 1, 90-day repeated dosing).
O=c1nc(NO)ccn1[C@@H]1O[C@H](CO)[C@@H](O)[C@H]1O has a mRNA level of 0.6 fold (RT-PCR, measured: CYP2C13; rat, arthritis model, liver; oral, 80 mg/kg twice daily, 5 days; reference: untreated arthritic rats).
CC(C)C[C@H](NC(=O)C[C@H](O)[C@H](CC(C)C)NC(=O)[C@H](Cc1c[nH]cn1)NC(=O)CNC(=O)[C@@H](NC(=O)[C@H](C)NC(=O)[C@H](Cc1c[nH]c2ccccc12)NC(=O)[C@H](CCC(N)=O)NC(=O)[C@@H](Cc1ccccc1)NC(=O)CCNC(=O)CCNC(=O)CN1CCN(CC(=O)O)CCN(CC(=O)O)CCN(CC(=O)O)CC1)C(C)C)C(N)=O [lutetium-177 labelled] has a tumour uptake of 9 ± 3.9 %ID/g (mouse, PC-3 xenograft; intravenous, 200 pmol, 1 h).
CC(C)c1cnc(-c2cc(Cl)ccc2F)cc1Nc1ccncc1C(=O)NC(CO)CO: “patients with decreased appetite” 2.4% (patients, phase I monotherapy; oral, dose not given, grade 2).
For N=C(N)NCCC[C@H](NC(=O)CON=C[C@H](F)[C@@H](O)[C@H](O)[C@H](O)CO)C(=O)NCC(=O)N[C@@H](CC(=O)O)C(=O)O [fluorine-18 labelled], the tissue ratio was 0.49 ± 0.14 (nude mice, U-87 MG xenograft; intravenous, 0.5 h; reference: tumour over kidney).
CN1CCC[C@]1(C)/C=C/S(=O)(=O)NC(=O)Nc1c2c(cc3c1CCC3)CCC2 gave an AUC(0-t) of 27000 ng·h/mL (human, plasma; oral, 25 mg, single dose, healthy volunteers).
CCCCC/C=C/C=C/C(=O)NCC(C)C gave a relative error of -1.6% (processed rat plasma; 250 ng/mL, 4 h, 20 °C, autosampler stability medium QC; reference: nominal concentration).
For COc1ccc([C@@H]2CC(=O)c3c(O)cc(O[C@@H]4O[C@H](CO[C@@H]5O[C@@H](C)[C@H](O)[C@@H](O)[C@H]5O)[C@@H](O)[C@H](O)[C@H]4O)cc3O2)cc1O, the relative error was 9.47% (rat plasma; 15.62 ng/mL, three freeze-thaw cycles; reference: nominal concentration).
CC1C(c2c(F)ccc(F)c2F)CC(N[14C](=O)c2cnc3c(c2)CC2(C3)C(=O)Nc3ncccc32)C(=O)N1CC(F)(F)F (centres unmarked) has a total excretion of 88.5% and ~89% (measured: total radioactivity; human, urine and feces; 14 days; reference: dose).
The aggregate size of c1ccc(CN2CCOCCOCCN(CCCCCCCCCCCCCCN3CCOCCOCCN(CCCCCCCCCCCCCCN4CCOCCOCCN(Cc5ccccc5)CCOCCOCC4)CCOCCOCC3)CCOCCOCC2)cc1 is reported as 164 ± 22 nm (scanning electron microscopy; Escherichia coli cell surface; concentration not given, 5 min).
For CC(C)(O)c1ncc([S@](N)(=O)=NC(=O)Nc2c3c(cc4c2CCC4)CCC3)s1, the AUC(0-t) was 3110 ng·h/mL (human, plasma; oral, 3 mg, single dose, fasted, healthy volunteers).
COc1cc(C(=O)COC(=O)CCCN)cc(OC)c1O has a triplet lifetime of 0.36 ns (pump-probe transient absorption; 10% acetonitrile in water).
Cn1c(=O)oc2ccc(-c3ccc(CC(C#N)NC(=O)C4CNCCCO4)c(F)c3)cc21 (centres unmarked): “subjects with TEAE” 0% (measured: macule; human; 15 mg single dose, fasted).
For C#CC1(NC(=O)C(CC(C)(C)F)NC(c2ccc(-c3ccc(S(C)(=O)=O)cc3)cc2)C(F)(F)F)CC1 (centres unmarked), “cysteine adduct formation” read 0% (LC-MS UV trace; aqueous buffer; concentration not given, 23 h, pH 7.5, 37 °C, with: cysteine 10 mM).
For NC12CNCCNCC(NCc3ccc(CNC(=O)CCCC(=O)NCc4ccc(-c5nncnn5)cc4)cc3)(CNCCNC1)CNCCNC2.[64Cu+2], “mean absorbed dose” read 0.0303 rad/mCi (OLINDA dosimetry; breasts; pretargeting, 48-h interval).
COc1cccc(CNC[C@](O)(COCc2ccccc2)[C@@H]2CC[C@@H](C)C[C@H]2OCc2ccccc2)c1 gave a permeability of 7.5 ± 0.3 ×10⁻⁶ cm/s (PAMPA-GI; phosphatidylcholine-cholesterol membrane; 500 µM, 4 h, pH 6.5, 37 °C, 5% DMSO).
Under “maximal oral bioavailability”, CC12CC(c3ccc(C(O)CO)cc3)C3=C4CCC(=O)C=C4CCC3C1CCC2(O)C(F)(F)C(F)(F)F (centres unmarked) is recorded as 82% (rat liver microsomes; 100 % absorption assumed).
COC1C=COC2(C)Oc3c(C)c(O)c4c(c3C2=O)C2=NC3(CCN(CC(C)C)CC3)NC2=C(NC(=O)C(C)=CC=CC(C)C(O)C(C)C(O)C(C)C(OC(=O)Nc2cccnn2)C1C)C4=O (centres unmarked) gave a fAUC/MIC ratio of 64 (CD-1 mouse female, plasma; oral, 10 mg/kg).
CCCC[C@H](NC(=O)CN1CCC(NC(=O)CN2CCN(CC(=O)O)CCN(CC(=O)O)CCN(CC(=O)O)CC2)CC1)C(=O)N[C@H]1CC(=O)NCCCC[C@@H](C(N)=O)NC(=O)[C@H](Cc2c[nH]c3ccccc23)NC(=O)[C@H](CCCNC(=N)N)NC(=O)[C@@H](Cc2ccccc2)NC(=O)[C@H](Cc2c[nH]cn2)NC1=O [gallium-68 labelled] — result for “tumour to kidney ratio”: 2.7 ± 0.9 (biodistribution; C57BL/6J mouse male tumour-bearing; 1 h post injection, unblocked; reference: tumour over kidney).
The urine excretion of CCCC[C@@H]1NC(=O)[C@@H](NC(=O)[C@H](CCC(=O)O)NC(=O)CNC(=O)CN2CCN(CC(=O)O)CCN(CC(=O)O)CCN(CC(=O)O)CC2)CCCCNC(=O)C[C@@H](C(N)=O)NC(=O)[C@H](C(C)C)NC(=O)[C@@H]2CCCN2C(=O)[C@H](CCCNC(=N)N)NC(=O)CNC(=O)[C@H](Cc2c[nH]c3ccccc23)NC(=O)[C@H](CCCNC(=N)N)NC(=O)[C@@H](Cc2ccccc2)NC(=O)[C@H](Cc2c[nH]cn2)NC(=O)[C@H](CCC(=O)O)NC1=O [gallium-67 labelled] is reported as 77.33 ± 0.74% (C57 mice, B16/F1 flank melanoma; intravenous, 0.037 MBq, 0.5 h).
CC(C)[C@H](NC(=O)[C@@H]1CCCN1C(=O)[C@H](CCCNC(=N)N)NC(=O)[C@H](CS)NC(=O)[C@H](Cc1c[nH]c2ccccc12)NC(=O)[C@H](CCCNC(=N)N)NC(=O)[C@@H](Cc1ccccc1)NC(=O)[C@H](Cc1c[nH]cn1)NC(=O)[C@H](CCC(=O)O)NC(=O)[C@H](CS)NC(=O)[C@H](CS)NC(=O)CNC(=O)[C@@H]1CC(=O)N[C@@H](CCCNC(=N)N)C(=O)NCC(=O)N[C@@H](CC(=O)O)C(=O)N[C@H](Cc2ccc(O)cc2)C(=O)N1)C(N)=O [technetium-99m labelled] has an excretion of 92.7 ± 1.99% (C57 mice B16/F1 melanoma female, urine; iv, 0.037 MBq, 24 h).
For C=C(C)c1ccc([C@H]2C[C@@]3(C)[C@@H](CC[C@@]3(O)C(F)(F)C(F)(F)F)[C@@H]3CCC4=CC(=O)CCC4=C32)cc1, “maximal oral bioavailability” read 28% (human liver microsomes; 100 % absorption assumed).
NCCCC[C@H](NC(=O)[C@@H]1CCCN1C(=O)[C@@H]1CSSC[C@H](N)C(=O)N[C@@H](Cc2ccc(O)cc2)C(=O)N[C@@H](Cc2ccccc2)C(=O)N[C@@H](CCC(N)=O)C(=O)N[C@@H](CC(N)=O)C(=O)N1)C(=O)NCC(N)=O: “duration detectable in blood” 2 h (Sprague Dawley rats; sc, 0.2 mg/kg terlipressin, metabolite).
With COC(=O)c1ccc(-c2cn(Cc3cc(Cl)ccc3O[11CH3])nn2)cc1 the radioactivity was 2.58 %ID/cc (C57BL/6 mouse, brain; iv, dose not given, 2 min).
CCCC[C@H](NC(=O)CNC(=O)CNC(=O)CN1CCN(CC(=O)O)CCN(CC(=O)O)CC1)C(=O)N[C@H]1CC(=O)NCCCC[C@@H](C(N)=O)NC(=O)[C@H](Cc2c[nH]c3ccccc23)NC(=O)[C@H](CCCNC(=N)N)NC(=O)[C@@H](Cc2ccccc2)NC(=O)[C@H](Cc2c[nH]cn2)NC1=O [gallium-67 labelled]: “tumour to tissue ratio” 28.2 (female C57 mice, B16/F1 melanoma; intravenous, 0.037 MBq, 0.5 h; reference: tumour over muscle).

Excerpt of the above:
CC(C)[C@H](NC(=O)[C@@H]1CCCN1C(=O)[C@H](CCCNC(=N)N)NC(=O)[C@H](CS)NC(=O)[C@H](Cc1c[nH]c2ccccc12)NC(=O)[C@H](CCCNC(=N)N)NC(=O)[C@@H](Cc1ccccc1)NC(=O)[C@H](Cc1c[nH]cn1)NC(=O)[C@H](CCC(=O)O)NC(=O)[C@H](CS)NC(=O)[C@H](CS)NC(=O)CNC(=O)[C@@H]1CC(=O)N[C@@H](CCCNC(=N)N)C(=O)NCC(=O)N[C@@H](CC(=O)O)C(=O)N[C@H](Cc2ccc(O)cc2)C(=O)N1)C(N)=O [technetium-99m labelled] has an excretion of 92.7 ± 1.99% (C57 mice B16/F1 melanoma female, urine; iv, 0.037 MBq, 24 h).
For C=C(C)c1ccc([C@H]2C[C@@]3(C)[C@@H](CC[C@@]3(O)C(F)(F)C(F)(F)F)[C@@H]3CCC4=CC(=O)CCC4=C32)cc1, “maximal oral bioavailability” read 28% (human liver microsomes; 100 % absorption assumed).
NCCCC[C@H](NC(=O)[C@@H]1CCCN1C(=O)[C@@H]1CSSC[C@H](N)C(=O)N[C@@H](Cc2ccc(O)cc2)C(=O)N[C@@H](Cc2ccccc2)C(=O)N[C@@H](CCC(N)=O)C(=O)N[C@@H](CC(N)=O)C(=O)N1)C(=O)NCC(N)=O: “duration detectable in blood” 2 h (Sprague Dawley rats; sc, 0.2 mg/kg terlipressin, metabolite).
